Assay results collected from several papers.
Numbered parts are unrelated; each lists some results of a single study. Substitutions count along the parent as printed.

Series 1 — target: CCNE2, cyclin fold, Cln2 fusion (human); method: yeast growth competition, sequencing; medium: yeast; setting: strong parent motif; reference: not given; reading: higher = stronger binding
Parent: GMNC docking peptide (human); KNAKRNLSSEFAN
Variant | normalised enrichment score
A3S | 0.332
R5Q | 0.618
A3V | 3.09
F11D | 0.738
K4N | 0.512
A3P | -0.127
S8K | 0.784
S8W | 1.09
R5E | 0.247
A3N | -0.00851
K4R | 2.61
E10R | 0.537
K4M | 0.512
A12T | 1.59
F11L | 1.02
N2V | 0.768

Series 2 — method: RNA Bind-n-Seq; form: RNA; medium: in vitro; concentration: 365 nM; reference: no-protein control; reading: higher = stronger binding
Target: RNA binding protein fox-1 homolog 2, RRM domain, GST-SBP tag (RBFOX2, Homo sapiens, UniProt O43251-10, residues 100-194)
Setting: natural RNA segment, single round, ends assumed
Constant ends, left off below: GGGAGUUCUACAGUCCGACGAUC … UGGAAUUCUCGGGUGCCAA
Residues (chain): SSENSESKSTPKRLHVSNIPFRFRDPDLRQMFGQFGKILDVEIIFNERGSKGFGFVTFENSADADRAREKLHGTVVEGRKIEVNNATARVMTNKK
Strand | RBNS enrichment (R)
GGCCUGGGGCGGGGGGAACAGUCACUGGGUCUCAGAUUCUGAGACUGUUGUUUAGCUUACCUUUCUGCUAGGAUUGGCUUCCCGCAGAGGGCAGGGCCCAUCCUAAGCAG | 0.276
CUGUGUGUAGUCCUGCUUCUUCCAGUCUGCAGUAUUCACUAGAGGCGCCCUUUGCAUGUUGCACUCUGUUCUCAUUUGGAGGUUGGACUCAGACCAGUUAGCACAGUAUU | 19.9
UGCUCAGCACAGAGGCCAGCUUGCGGGAGCUCUGCGUCUCAGGCAGGUGGGACCUCUGAGACACUGGUCCCCACAGAGCUGUAAGUGAGAAGAGCAGUUUGUCCACUCUG | 0.407
UUAGUGCUGAUGACAGAGGGGCCGGUCGCAUGGGAUGAGGCUCGGUGGGCCUCUUGCUUGUUGUCUCCUGUCUCCUCAAAUGGCUGAAAACUUGGAGGGUCUCGGUUGUU | 0.548
UAACUACAGCACAGGCUACCUUGCUGAUGUGUCCAUGUCACUGGUCUCCCUUUUAGCUAAAAUCUGAGAGUAGAAUAACCUGAUCUUUGAGGCCUCUUCCAAUGUUAGUC | 0.318
UCUGCUACAUUUCUGUAAGAGAGUUAAGUCUGAGAACUAGUCUCGCAAGUGUAUCUGUUAGUACACUCUGCAAGAGGACUGGACUGCUGGCCUAGGUAUAUGGAUCUCAC | 0.312
AACUCCAGUCUUCUCUCAACUGCCCAGUUGUAUGUUGUCAUCAAUCACUUUUUCAAGGCUGGGUAGAGACAAGUUUCUCCUCGUAACUUUGACCUCUCCCACUCUCCAAA | 0.451
AUUAACAUGCUUCUUUUAUUCUUCAAAGCAAUUCUUUACAACCUGACCAUGUAAAAGAUCUGUUACCCCUAGAGUGUUGAGCCUGCUGAUUUCAUUUAGGACAAAUGUGC | 0.42
GUUGGUAUAGAAAUGUCUAAAUCCUAUACUCUAGUUGAGGAAGAUCUUCCAUAAUUUUAUGGUAUUACACAGGGAAAGCUAUGACUGCAGGAUCAGUCUAACUAUACUAU | 0.522
GGCUUUGAUUCCAUCUCCUUGUCUUUUUUCUUUGUUUUUAGAGACAGGGUCCUGCUAUUUCCCAAGCUGGAGUGCAGUGGUGCGAUCAUGGCUCACUGCAGCCUCGAACU | 0.224
CCGGAUGACAGUGACGAGGAGAACUGGGGCACGUGGGGUGCGGCAGCGGGCUAGGGCCCAGGGCAGCUUGCCCGUGCUGCUGUGCAGUUCUUGCCUCCCUCACGGGGCGU | 0.465
GAGGGGUGGGAGCCCUUAAGAACUAUUGAUGUGGCCUUAAAUUACUGUCAUUUAUUAUCCUAAAGAAGAAAACAUAAUAACCAUAAUGGGCUCUCAACUCAACUCCCUUU | 0.53

Series 3 — method: DHFR PCA, deep sequencing; medium: yeast; together with: (+)-ABA 200 µM; reference: wild-type fitted maximum; reading: higher = stronger binding
Target: ABI1, truncated, D143A, DHFR fusion (Arabidopsis thaliana)
Setting: methotrexate growth selection, single substitutions
Parent: PYL1, truncated, DHFR fusion (Arabidopsis thaliana); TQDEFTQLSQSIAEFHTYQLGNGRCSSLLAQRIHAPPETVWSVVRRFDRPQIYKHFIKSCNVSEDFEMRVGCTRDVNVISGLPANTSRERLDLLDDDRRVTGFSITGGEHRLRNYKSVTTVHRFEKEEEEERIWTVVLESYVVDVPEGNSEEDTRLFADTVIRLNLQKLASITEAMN
Variant | relative binding score [%]
D92G | 40.3
S104Y | 37.3
Q10R | 98
F103L | 22.7
S140E | -4.21
S27T | 69
L8V | 88.1
A170T | 83
R113W | 82.2
H55N | 102
Y53C | 45

Single results of other studies
Molecule | target | test | test system | setting | scale | measurement | value
PhoQ, residues 284 288 289 292 302 303 NSMLDC | PhoP, residues 12 14 15 18 19 STHWV (Escherichia coli, UniProt P23836) | Sort-seq, refers to: YFP reporter | E. coli | PhoQ-PhoP variant library, together with: 10 µM Mg2+ | reference: high Mg2+ state, higher = stronger signaling | fold induction | 4.66

A few entries again (series 1):
Variant | normalised enrichment score
K4N | 0.512
A3P | -0.127
S8K | 0.784
S8W | 1.09
R5E | 0.247
A3N | -0.00851
